Assay results collected from several papers.
Lines come from different studies, so protocols differ.
Cell line: HEK293

| Structure (SMILES) | assay | setting | scale | endpoint | value |
| --- | --- | --- | --- | --- | --- |
| CN1C(=O)[C@@H]2NC(=O)[C@@H]3NC(=O)[C@@H](c4ccc(O)cc4)NC(=O)[C@H](NC(=O)C(NCc4cccc(O)c4)c4ccc(O)cc4)Cc4c[nH]c5cc(ccc45)-c4cc3cc(c4O)Oc3ccc(cc3)C[C@H]1C(=O)N[C@@H](C(=O)O)c1ccc(O)c(c1)Oc1ccc2cc1 (stereo partly drawn) | cell viability, CellTiter-Glo | 48 h |  | concentration without cytotoxicity | > 256 µg/mL |
| COc1ccc2cc1Oc1cc3c(cc1OC)CCN(C)C3Cc1ccc(cc1)Oc1c(O)c(OC)cc3c1C(C2)N(C)CC3 (stereo not drawn) | cell growth or viability, MTT | 24 h |  | CC50 | 37.3 µM |
| CN1C(=O)[C@@H]2NC(=O)[C@@H]3NC(=O)[C@@H](c4ccc(O)cc4)NC(=O)[C@H](NC(=O)C(N)c4ccc(O)cc4)Cc4c[nH]c5cc(ccc45)-c4cc3cc(c4O)Oc3ccc(cc3)C[C@H]1C(=O)N[C@@H](C(=O)O)c1ccc(O)c(c1)Oc1ccc2cc1 (stereo partly drawn) | cell viability, CellTiter-Glo | 48 h |  | concentration without cytotoxicity | > 256 µg/mL |
| CC[C@H](C)[C@H](NC(=O)[C@H](CCCNC(=N)N)NC(=O)[C@H](Cc1ccccc1)NC(=O)[C@H](CC(C)C)NC(=O)[C@H](CCCCN)NC(=O)[C@H](CO)NC(=O)[C@@H](NC(=O)[C@H](CC(C)C)NC(=O)[C@H](CCCCN)NC(=O)[C@H](C)NC(=O)[C@H](CC(N)=O)NC(=O)[C@H](CCCNC(=N)N)NC(=O)[C@H](Cc1ccc(O)cc1)NC(=O)[C@H](C)NC(=O)[C@@H](NC(=O)[C@H](CCCCN)NC(=O)[C@H](CC(N)=O)NC(=O)[C@H](CCCCN)NC(=O)[C@H](CC(C)C)NC(=O)[C@H](CO)NC(=O)[C@H](CC(C)C)NC(=O)[C@H](C)NC(=O)[C@H](C)NC(=O)[C@H](CO)NC(=O)[C@@H](NC(=O)[C@@H](NC(=O)[C@H](Cc1c[nH]c2ccccc12)NC(=O)[C@@H](NC(=O)[C@H](CO)NC(=O)[C@@H](NC(=O)[C@@H](N)CC(C)C)C(C)C)C(C)C)[C@@H](C)CC)[C@@H](C)CC)C(C)C)C(C)C)C(=O)N[C@@H](C)C(=O)N[C@@H](CC(C)C)C(=O)O | MTT | 128 µg/mL, 24 h |  | cell death | 12.2% |
| CCCC1(CC)OOC2(CCN(C(=O)c3ccccc3)CC2)OO1 | cell growth or viability, MTT | 72 h |  | CC50 | > 100 µg/mL |
| C=C(C)[C@@H]1CC[C@]2(/C=N/NC(=O)c3ccncc3)CC[C@]3(C)[C@H](CC[C@@H]4[C@@]5(C)CCCNC(C)(C)[C@@H]5CC[C@]43C)[C@@H]12 | cell growth or viability, resazurin | 20 h |  | CC50 | > 20 µM |
| C[C@H](Nc1c(-c2c(F)cc(OCCCN(C)C)cc2F)c(Cl)nc2ncnn12)C(F)(F)F | cell growth or viability, ATP luminescence | 48 h |  | CC50 | 0.0261 µM |
| C=C(C)[C@@H]1CC[C@]2(CO)CC[C@]3(C)[C@H](CC[C@@H]4[C@@]5(C)CCCNC(C)(C)[C@@H]5CC[C@]43C)[C@@H]12 | cell growth or viability, resazurin | 20 h |  | CC50 | > 20 µM |
| O=C(c1ccccc1)N1CCC2(CC1)OOC1(CCCC1)OO2 | cell growth or viability, MTT | 72 h |  | CC50 | > 100 µg/mL |
| C=C(C)[C@@H]1CC[C@]2(C(=O)NC3CCCCC3)CC[C@]3(C)[C@H](CC[C@@H]4[C@@]5(C)CCCNC(C)(C)[C@@H]5CC[C@]43C)[C@@H]12 | cell growth or viability, resazurin | 20 h |  | CC50 | > 20 µM |
| CN1C(=O)[C@@H]2NC(=O)[C@@H]3NC(=O)[C@@H](c4ccc(O)cc4)NC(=O)[C@H](NC(=O)C(NC(=O)CCCCCN)c4ccc(O)cc4)Cc4c[nH]c5cc(ccc45)-c4cc3cc(c4O)Oc3ccc(cc3)C[C@H]1C(=O)N[C@@H](C(=O)O)c1ccc(O)c(c1)Oc1ccc2cc1 (stereo partly drawn) | cell viability, CellTiter-Glo | 48 h |  | concentration without cytotoxicity | > 256 µg/mL |
| CCCCc1ccc(-c2nc(C)c(C(C)=NNC(=N)N)s2)cc1 | MTS | 40 µg/mL |  | cytotoxicity | toxic |
| CC1(C2CC2)OOC2(CCN(C(=O)c3ccccc3)CC2)OO1 | cell growth or viability, MTT | 72 h |  | CC50 | > 100 µg/mL |
| CC(C)C[C@H](NC(=O)CN)C(=O)N[C@@H](CC(C)C)C(=O)N[C@@H](CCCCN)C(=O)N[C@@H](CC(C)C)C(=O)N[C@@H](CC(C)C)C(=O)N[C@@H](CCCCN)C(=O)N[C@@H](CCCCN)C(=O)N[C@@H](CC(C)C)C(=O)N[C@@H](CC(C)C)C(=O)N[C@@H](CCCCN)C(=O)N[C@@H](CC(C)C)C(=O)N[C@@H](CC(C)C)C(=O)N[C@@H](CCCCN)C(N)=O | cytotoxicity |  |  | CC50 | 12 µM |
| C1N2CN3CN1CP(C2)C3.CC(C)OC(=O)C(n1cccn1)n1cccn1.F[P-](F)(F)(F)(F)F.[Cu+] | cell growth or viability, MTT |  |  | IC50 | > 50 µM |
| CC[C@H](C)[C@H](NC(=O)[C@H](CCCNC(=N)N)NC(=O)[C@H](CC(C)C)NC(=O)[C@H](CC(C)C)NC(=O)[C@H](C)NC(=O)[C@@H](NC(=O)[C@H](CCCCN)NC(=O)[C@H](CCCCN)NC(=O)[C@H](C)NC(=O)[C@@H](NC(=O)[C@H](Cc1c[nH]c2ccccc12)NC(=O)[C@@H](NC(=O)[C@H](Cc1ccc(O)cc1)NC(=O)[C@H](Cc1ccccc1)NC(=O)[C@H](CC(=O)O)NC(=O)[C@H](Cc1ccc(O)cc1)NC(=O)[C@@H](NC(=O)[C@H](CC(C)C)NC(=O)[C@H](CO)NC(=O)[C@H](C)NC(=O)[C@H](C)NC(=O)[C@@H](NC(=O)[C@@H](NC(=O)[C@@H](N)CC(C)C)[C@@H](C)CC)C(C)C)C(C)C)[C@@H](C)O)[C@@H](C)CC)C(C)C)C(=O)N[C@@H](C)C(=O)N[C@@H](CCCCN)C(=O)N[C@@H](CCCCN)C(=O)N[C@H](C(=O)N[C@@H](CC(C)C)C(=O)N[C@@H](Cc1ccc(O)cc1)C(=O)N[C@@H](CC(C)C)C(=O)N[C@@H](C)C(=O)N[C@@H](CCCNC(=N)N)C(=O)N[C@@H](CC(N)=O)C(=O)N[C@@H](C)C(=O)O)C(C)C | MTT | 1 to 4 µM |  | cytotoxicity | < 6% |
| C[C@@](O)(C(F)F)[C@H](NC(=O)c1ccc(C#CC#CC2CC2)cc1)C(=O)NO |  |  | baseline: LD50 over MIC90 | selectivity ratio | > 100 |
| CN(C)CCCNC(=O)[C@@H]1NC(=O)[C@@H]2Cc3ccc(cc3)Oc3cc4cc(c3O)-c3ccc5c(c[nH]c5c3)C[C@@H](NC(=O)C(NC(=O)CCCCCN)c3ccc(O)cc3)C(=O)N[C@H](c3ccc(O)cc3)C(=O)N[C@H]4C(=O)N[C@@H](C(=O)N2C)c2ccc(cc2)Oc2cc1ccc2O (stereo partly drawn) | cell viability, CellTiter-Glo | 48 h |  | concentration without cytotoxicity | > 256 µg/mL |

Some of these lines once more:
| Structure (SMILES) | assay | setting | scale | endpoint | value |
| --- | --- | --- | --- | --- | --- |
| C=C(C)[C@@H]1CC[C@]2(C(=O)NC3CCCCC3)CC[C@]3(C)[C@H](CC[C@@H]4[C@@]5(C)CCCNC(C)(C)[C@@H]5CC[C@]43C)[C@@H]12 | cell growth or viability, resazurin | 20 h |  | CC50 | > 20 µM |
| C1N2CN3CN1CP(C2)C3.CC(C)OC(=O)C(n1cccn1)n1cccn1.F[P-](F)(F)(F)(F)F.[Cu+] | cell growth or viability, MTT |  |  | IC50 | > 50 µM |
